Results gathered from unrelated publications.
Lines come from different studies, so protocols differ. ± gives the spread as reported.
FGFR1: Fibroblast growth factor receptor 1 (FGFR1, Homo sapiens, UniProt P11362)
Sequence of UniProt P11362 (whole entry, looked up): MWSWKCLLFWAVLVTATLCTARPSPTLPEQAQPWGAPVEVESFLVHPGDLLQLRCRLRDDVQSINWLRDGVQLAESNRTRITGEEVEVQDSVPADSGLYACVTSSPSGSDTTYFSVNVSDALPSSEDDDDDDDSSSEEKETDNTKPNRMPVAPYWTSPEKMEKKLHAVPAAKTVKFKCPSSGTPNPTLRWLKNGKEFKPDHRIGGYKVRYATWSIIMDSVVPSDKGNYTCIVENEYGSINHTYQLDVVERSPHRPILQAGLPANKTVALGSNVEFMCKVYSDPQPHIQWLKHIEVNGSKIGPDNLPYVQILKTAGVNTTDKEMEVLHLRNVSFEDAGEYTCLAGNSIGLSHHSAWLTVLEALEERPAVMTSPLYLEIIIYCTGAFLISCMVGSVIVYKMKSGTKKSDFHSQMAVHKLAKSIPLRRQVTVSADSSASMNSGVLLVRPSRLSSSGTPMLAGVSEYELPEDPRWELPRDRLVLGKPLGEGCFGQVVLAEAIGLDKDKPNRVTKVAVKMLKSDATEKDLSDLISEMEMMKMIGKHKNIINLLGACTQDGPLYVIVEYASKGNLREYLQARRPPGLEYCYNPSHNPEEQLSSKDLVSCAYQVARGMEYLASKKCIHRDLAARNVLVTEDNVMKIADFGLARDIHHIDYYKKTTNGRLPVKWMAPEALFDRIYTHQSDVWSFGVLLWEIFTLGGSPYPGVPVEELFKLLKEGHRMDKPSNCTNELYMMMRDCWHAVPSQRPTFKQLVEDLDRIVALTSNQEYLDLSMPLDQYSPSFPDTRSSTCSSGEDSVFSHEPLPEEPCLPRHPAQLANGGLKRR
Sequence of UniProt P31645 (whole entry, looked up): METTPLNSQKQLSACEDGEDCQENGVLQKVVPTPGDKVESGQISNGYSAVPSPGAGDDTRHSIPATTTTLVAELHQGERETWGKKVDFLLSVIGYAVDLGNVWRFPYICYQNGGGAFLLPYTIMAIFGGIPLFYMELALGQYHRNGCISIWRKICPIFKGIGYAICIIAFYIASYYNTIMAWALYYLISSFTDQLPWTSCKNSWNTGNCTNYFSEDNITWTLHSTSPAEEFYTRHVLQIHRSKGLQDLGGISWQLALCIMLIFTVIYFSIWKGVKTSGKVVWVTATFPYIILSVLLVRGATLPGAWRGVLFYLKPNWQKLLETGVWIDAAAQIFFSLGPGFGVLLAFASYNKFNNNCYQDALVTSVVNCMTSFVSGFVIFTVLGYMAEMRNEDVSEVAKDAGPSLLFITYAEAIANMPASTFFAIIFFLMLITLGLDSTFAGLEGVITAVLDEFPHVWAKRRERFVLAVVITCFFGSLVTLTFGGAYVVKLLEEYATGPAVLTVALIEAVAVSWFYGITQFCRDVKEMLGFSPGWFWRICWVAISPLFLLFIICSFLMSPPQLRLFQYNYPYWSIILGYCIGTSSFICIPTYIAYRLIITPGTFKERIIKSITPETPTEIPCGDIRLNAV
Sequence of UniProt P29317 (whole entry, looked up): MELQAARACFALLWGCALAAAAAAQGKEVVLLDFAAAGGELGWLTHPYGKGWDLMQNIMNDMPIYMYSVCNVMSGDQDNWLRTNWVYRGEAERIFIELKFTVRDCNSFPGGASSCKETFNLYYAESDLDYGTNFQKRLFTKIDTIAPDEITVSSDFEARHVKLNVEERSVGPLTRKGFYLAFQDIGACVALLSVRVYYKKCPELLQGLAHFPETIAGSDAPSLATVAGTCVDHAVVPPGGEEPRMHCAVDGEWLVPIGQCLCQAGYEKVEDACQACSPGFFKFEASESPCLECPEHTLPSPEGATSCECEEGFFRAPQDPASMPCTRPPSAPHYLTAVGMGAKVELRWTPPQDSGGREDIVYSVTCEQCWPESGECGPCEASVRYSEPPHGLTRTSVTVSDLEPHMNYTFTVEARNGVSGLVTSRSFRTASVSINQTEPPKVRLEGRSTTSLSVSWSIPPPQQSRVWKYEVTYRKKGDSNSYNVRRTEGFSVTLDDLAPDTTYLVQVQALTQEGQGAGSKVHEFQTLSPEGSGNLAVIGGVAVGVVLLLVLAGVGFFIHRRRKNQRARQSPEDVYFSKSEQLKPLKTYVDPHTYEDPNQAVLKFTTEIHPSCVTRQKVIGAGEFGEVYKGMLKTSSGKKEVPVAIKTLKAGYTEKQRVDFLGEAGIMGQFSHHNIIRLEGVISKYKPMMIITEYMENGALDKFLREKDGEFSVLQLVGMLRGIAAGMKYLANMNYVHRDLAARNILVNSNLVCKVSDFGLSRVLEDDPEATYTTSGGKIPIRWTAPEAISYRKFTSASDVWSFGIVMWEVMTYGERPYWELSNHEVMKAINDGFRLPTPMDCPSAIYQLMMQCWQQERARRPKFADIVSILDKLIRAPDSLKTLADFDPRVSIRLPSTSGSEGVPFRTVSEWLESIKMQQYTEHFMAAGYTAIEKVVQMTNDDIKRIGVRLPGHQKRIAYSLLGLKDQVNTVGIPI
Sequence of UniProt P07237 (whole entry, looked up): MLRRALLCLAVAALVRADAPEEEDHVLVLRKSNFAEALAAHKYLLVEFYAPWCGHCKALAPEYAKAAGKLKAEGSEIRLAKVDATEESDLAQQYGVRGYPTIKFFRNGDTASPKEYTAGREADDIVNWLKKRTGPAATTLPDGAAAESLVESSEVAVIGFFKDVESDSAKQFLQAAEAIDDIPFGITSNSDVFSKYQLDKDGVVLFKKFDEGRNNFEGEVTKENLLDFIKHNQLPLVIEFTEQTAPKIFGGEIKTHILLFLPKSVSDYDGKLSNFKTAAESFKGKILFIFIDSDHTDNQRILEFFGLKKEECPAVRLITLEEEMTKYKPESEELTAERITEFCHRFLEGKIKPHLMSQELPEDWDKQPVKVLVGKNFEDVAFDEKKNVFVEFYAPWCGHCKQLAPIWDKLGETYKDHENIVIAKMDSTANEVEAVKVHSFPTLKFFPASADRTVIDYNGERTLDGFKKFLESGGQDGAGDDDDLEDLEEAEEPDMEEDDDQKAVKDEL
Sequence of UniProt O60725 (whole entry, looked up): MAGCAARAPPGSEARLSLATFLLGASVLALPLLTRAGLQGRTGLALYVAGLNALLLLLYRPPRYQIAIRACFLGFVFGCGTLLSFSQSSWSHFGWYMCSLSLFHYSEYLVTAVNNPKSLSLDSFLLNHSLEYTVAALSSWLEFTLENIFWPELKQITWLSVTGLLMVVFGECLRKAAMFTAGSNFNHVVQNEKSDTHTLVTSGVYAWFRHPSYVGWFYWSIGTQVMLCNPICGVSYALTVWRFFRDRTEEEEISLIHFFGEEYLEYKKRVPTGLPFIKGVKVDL
Sequence of UniProt P13569 (whole entry, looked up): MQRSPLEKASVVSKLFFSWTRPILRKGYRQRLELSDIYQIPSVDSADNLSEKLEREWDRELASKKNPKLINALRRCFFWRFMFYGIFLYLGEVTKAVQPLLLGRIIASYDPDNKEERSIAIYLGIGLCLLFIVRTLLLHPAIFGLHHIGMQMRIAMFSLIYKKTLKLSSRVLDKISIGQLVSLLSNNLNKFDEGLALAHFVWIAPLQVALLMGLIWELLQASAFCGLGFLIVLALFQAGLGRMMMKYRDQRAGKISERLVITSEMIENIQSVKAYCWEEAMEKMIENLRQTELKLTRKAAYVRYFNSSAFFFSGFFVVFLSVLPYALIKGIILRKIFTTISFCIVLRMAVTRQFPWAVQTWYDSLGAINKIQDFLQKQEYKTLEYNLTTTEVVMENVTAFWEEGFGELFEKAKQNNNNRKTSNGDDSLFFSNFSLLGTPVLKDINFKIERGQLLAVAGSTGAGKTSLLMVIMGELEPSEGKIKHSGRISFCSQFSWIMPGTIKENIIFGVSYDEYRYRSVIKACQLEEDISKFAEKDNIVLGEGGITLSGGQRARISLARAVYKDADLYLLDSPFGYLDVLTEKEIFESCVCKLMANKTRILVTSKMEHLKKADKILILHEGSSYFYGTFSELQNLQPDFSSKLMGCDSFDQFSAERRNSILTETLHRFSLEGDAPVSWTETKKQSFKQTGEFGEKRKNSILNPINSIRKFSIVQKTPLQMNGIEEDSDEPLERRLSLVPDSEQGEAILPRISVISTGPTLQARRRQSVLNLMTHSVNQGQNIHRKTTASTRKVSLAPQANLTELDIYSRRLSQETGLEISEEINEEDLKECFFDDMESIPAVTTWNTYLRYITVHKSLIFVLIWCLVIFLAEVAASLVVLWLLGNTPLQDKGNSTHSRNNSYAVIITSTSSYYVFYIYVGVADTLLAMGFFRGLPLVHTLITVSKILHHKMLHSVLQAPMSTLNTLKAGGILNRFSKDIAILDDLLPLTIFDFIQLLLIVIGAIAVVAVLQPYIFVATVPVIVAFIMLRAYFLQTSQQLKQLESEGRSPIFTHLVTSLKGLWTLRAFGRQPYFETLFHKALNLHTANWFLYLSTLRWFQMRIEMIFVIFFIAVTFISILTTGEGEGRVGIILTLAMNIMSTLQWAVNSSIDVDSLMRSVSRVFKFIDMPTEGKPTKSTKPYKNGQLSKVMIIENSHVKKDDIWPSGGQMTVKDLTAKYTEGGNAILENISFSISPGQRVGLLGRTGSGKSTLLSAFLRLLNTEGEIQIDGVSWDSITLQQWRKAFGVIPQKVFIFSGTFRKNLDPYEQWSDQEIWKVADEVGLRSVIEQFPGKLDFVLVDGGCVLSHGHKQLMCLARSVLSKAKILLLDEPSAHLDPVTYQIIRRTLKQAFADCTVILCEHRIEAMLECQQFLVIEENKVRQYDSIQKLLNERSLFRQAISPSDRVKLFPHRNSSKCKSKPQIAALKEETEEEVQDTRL
Sequence of UniProt Q15661 (whole entry, looked up): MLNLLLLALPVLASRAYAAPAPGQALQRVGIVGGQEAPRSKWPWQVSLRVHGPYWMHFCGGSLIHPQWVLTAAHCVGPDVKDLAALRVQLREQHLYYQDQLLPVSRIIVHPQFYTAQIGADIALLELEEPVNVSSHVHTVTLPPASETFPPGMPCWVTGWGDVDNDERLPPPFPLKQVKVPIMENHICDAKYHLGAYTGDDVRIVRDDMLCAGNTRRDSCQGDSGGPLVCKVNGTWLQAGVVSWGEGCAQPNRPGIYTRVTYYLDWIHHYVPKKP

Compound | target | test | test system | conditions | IC50
Cc1ccc2oc(-c3c4c(N)n[nH]c(=O)c4nn3-c3ccc(NC(=O)/C=C/CN(C)C)cc3)c(C)c2c1 | Ephrin type-A receptor 2 (EPHA2, Homo sapiens, UniProt P29317) | enzyme activity, inhibitor, ELISA |  |  | > 1000 nM
O=C(O)c1ccc(C=C2SC(=S)N(c3cccc(C(F)(F)F)c3)C2=O)cc1 | Cystic fibrosis transmembrane conductance regulator (CFTR, Homo sapiens, UniProt P13569) | ion current, inhibitor, patch clamp |  |  | 1160 nM
CC(C)C[C@H](NC(=O)[C@H](Cc1ccc(O)cc1)NC(=O)[C@@H](CCCNC(=N)N)NC(=O)[C@@H](CO)NC(=O)[C@H](Cc1ccccc1)NC(=O)[C@H](CC1CCCCC1)NC(=O)[C@H](CC(=O)O)NC(=O)CN1CCCN2CCN(CCCN(CC(=O)O)CC2)CC1)C(=O)N[C@@H](Cc1c[nH]c2ccccc12)C(=O)N[C@@H](CO)C(=O)O (single isomer, unassigned) | Urokinase plasminogen activator surface receptor (Homo sapiens, UniProt Q03405) | binding to pro-uPA, inhibitor, surface plasmon resonance |  | together with: uPAR 0.5 nM | 5.9 ± 1 nM
COc1cc2nccc(Oc3ccc(NC(=S)NC4CC4)c(Cl)c3)c2cc1C(=O)NO | FGFR1 |  |  |  | 294 nM
Cc1ccc(CNC(=O)[C@@H](NC(=O)[C@H](CCc2ccccc2)NC(=O)[C@@H](NC(=O)c2cnc(C)cn2)C(C)(C)C)C(C)C)cc1 | 20S proteasome (Plasmodium falciparum, UniProt A0A5K1K7U1+Q8IJT1) | β5 activity, inhibitor |  | together with: Suc-LLVY-AMC, PA28α-activated | 47.2 nM
N[C@@H](CCC(=O)N[C@@H](CS[Se]Cc1ccc(-c2cccc(C(O)c3ccc(Cl)c(Cl)c3)c2)cc1)C(=O)NCC(=O)O)C(=O)O (some centres unmarked) | Dual specificity protein phosphatase 10 (Homo sapiens, UniProt Q9Y6W6) | enzyme activity, inhibitor |  | together with: pNPP, GSH 1 mM | > 200000 nM
O=C1NCCc2c(Cc3ccc(Cl)cc3)[nH]c3c(OC(F)F)ccc1c23 | cGMP-specific 3',5'-cyclic phosphodiesterase (PDE5A, Homo sapiens, UniProt O76074) | enzyme activity, inhibitor |  |  | 12 nM
CNC(=O)c1ccc2c(c1)nc(-c1cn(CC(=O)c3ccccc3)c3ccccc13)n2CC1CCCCN1C(=O)OC(C)(C)C (centres unmarked) | Epithelial discoidin domain-containing receptor 1 (DDR1, Homo sapiens, UniProt Q08345) | cell-free assay |  |  | 3600 nM
COc1cc2nccc(Oc3ccc(N4C(=O)CNC4=S)c(Cl)c3)c2cc1C(N)=O | FGFR1 |  |  |  | 1260 nM
CCCCCCCCN(CCC(=O)Nc1ccccc1)C(=O)c1ccccn1 | Protein-S-isoprenylcysteine O-methyltransferase (Homo sapiens, UniProt O60725) | enzyme activity, inhibitor | Sf9 membranes | together with: biotin-farnesyl-L-cysteine | 1400 nM
COc1ccc2cc(C(=O)NCCCN3CCC(Cc4ccccc4)CC3)ccc2c1 | Sodium-dependent serotonin transporter (SLC6A4, Homo sapiens, UniProt P31645) | transporter uptake |  |  | 230 to 450 nM
CC[C@H](C)[C@H](NC(C)=O)C(=O)N[C@H](CC(=O)N[C@H](C(=O)N[C@@H](C)C(=O)N[C@@H](CCC(N)=O)C(=O)N[C@@H](CCC(=O)O)CC(=O)N[C@@H](CC(C)C)C(=O)N[C@@H](CCCNC(=N)N)C(=O)N[C@@H](CCCNC(=N)N)C(=O)N[C@H](CC(=O)NCC(=O)N[C@@H](CC(=O)O)C(=O)N[C@@H](CCC(=O)O)C(=O)N[C@H](CC(=O)N[C@@H](CC(N)=O)C(=O)N[C@@H](C)C(=O)N[C@@H](Cc1ccc(O)cc1)C(=O)N[C@H](CC(N)=O)Cc1ccc(O)cc1)Cc1ccccc1)[C@@H](C)CC)[C@@H](C)CC)Cc1c[nH]c2ccccc12 | Bcl-2-like protein 2 (BCL2L2, Homo sapiens, UniProt Q92843) | competition SPR |  | pH 7.4, together with: BimBH3 peptide | 29 ± 2 nM
N#Cc1cccc(/C=C/C(=O)c2ccc(O)cc2)c1 | Protein disulfide-isomerase (P4HB, Homo sapiens, UniProt P07237) | enzyme activity, inhibitor |  |  | 930 nM
NS(=O)(=O)c1ccc(/N=N/c2ccc(O)[nH]c2=O)cc1 | Semaphorin-3C, with neuropilin-1 (SEMA3C, Homo sapiens, UniProt Q99985) | SEMA3C binding, inhibitor, displacement |  | together with: SEMA3C-AP | 19600 nM
CC(C)OP(=O)(O)C[C@H]1C[C@@](O)(C(=O)O)C[C@@H](O)[C@@H]1O | 3-dehydroquinate synthase, chloroplastic (DHQS, Arabidopsis thaliana, UniProt Q8VYV7) | enzyme activity, inhibitor, malachite green phosphate release |  | 29 °C | 0.6 nM
NCc1cccc(C2CCN(C(=O)c3cccc(OCC(=O)C4(O)CCC4)c3)CC2)c1 | Tryptase beta-1 (Homo sapiens, UniProt Q15661) | enzyme activity, inhibitor |  | tryptase 100 pM, together with: AMC substrate | 103 nM
O=C(O)/C=C\c1cc2ccoc2cc1O[C@@H]1O[C@H](CO)[C@@H](O)[C@H](O)[C@H]1O | Solute carrier family 22 member 12 (SLC22A12, Homo sapiens, UniProt Q96S37) |  |  |  | 53000 nM

Repeated from above:
Compound | target | test | test system | conditions | IC50
Cc1ccc2oc(-c3c4c(N)n[nH]c(=O)c4nn3-c3ccc(NC(=O)/C=C/CN(C)C)cc3)c(C)c2c1 | Ephrin type-A receptor 2 (EPHA2, Homo sapiens, UniProt P29317) | enzyme activity, inhibitor, ELISA |  |  | > 1000 nM
O=C(O)c1ccc(C=C2SC(=S)N(c3cccc(C(F)(F)F)c3)C2=O)cc1 | Cystic fibrosis transmembrane conductance regulator (CFTR, Homo sapiens, UniProt P13569) | ion current, inhibitor, patch clamp |  |  | 1160 nM
CC(C)C[C@H](NC(=O)[C@H](Cc1ccc(O)cc1)NC(=O)[C@@H](CCCNC(=N)N)NC(=O)[C@@H](CO)NC(=O)[C@H](Cc1ccccc1)NC(=O)[C@H](CC1CCCCC1)NC(=O)[C@H](CC(=O)O)NC(=O)CN1CCCN2CCN(CCCN(CC(=O)O)CC2)CC1)C(=O)N[C@@H](Cc1c[nH]c2ccccc12)C(=O)N[C@@H](CO)C(=O)O (single isomer, unassigned) | Urokinase plasminogen activator surface receptor (Homo sapiens, UniProt Q03405) | binding to pro-uPA, inhibitor, surface plasmon resonance |  | together with: uPAR 0.5 nM | 5.9 ± 1 nM
